Results pooled from the literature.
Lines come from different studies, so protocols differ. Several values in a cell are separate wells, animals, samples, runs or records. ± gives the spread as reported. In brackets after ≈: the same amount, converted by molar mass.
UniProt P10632, sequence (whole entry, looked up): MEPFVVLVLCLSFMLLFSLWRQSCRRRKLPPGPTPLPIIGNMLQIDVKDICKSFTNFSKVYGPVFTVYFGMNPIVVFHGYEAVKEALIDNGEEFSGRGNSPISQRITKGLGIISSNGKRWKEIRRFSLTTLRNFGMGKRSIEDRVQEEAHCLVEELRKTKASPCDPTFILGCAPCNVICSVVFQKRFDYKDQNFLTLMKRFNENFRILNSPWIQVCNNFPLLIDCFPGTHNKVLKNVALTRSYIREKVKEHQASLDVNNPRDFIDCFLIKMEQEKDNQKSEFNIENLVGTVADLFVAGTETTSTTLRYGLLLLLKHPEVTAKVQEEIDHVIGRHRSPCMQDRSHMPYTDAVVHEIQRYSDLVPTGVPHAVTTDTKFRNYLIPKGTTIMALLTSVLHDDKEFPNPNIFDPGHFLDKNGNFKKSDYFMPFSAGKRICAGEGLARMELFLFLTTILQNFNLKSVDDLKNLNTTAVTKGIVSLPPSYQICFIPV
UniProt P33261, sequence (whole entry, looked up): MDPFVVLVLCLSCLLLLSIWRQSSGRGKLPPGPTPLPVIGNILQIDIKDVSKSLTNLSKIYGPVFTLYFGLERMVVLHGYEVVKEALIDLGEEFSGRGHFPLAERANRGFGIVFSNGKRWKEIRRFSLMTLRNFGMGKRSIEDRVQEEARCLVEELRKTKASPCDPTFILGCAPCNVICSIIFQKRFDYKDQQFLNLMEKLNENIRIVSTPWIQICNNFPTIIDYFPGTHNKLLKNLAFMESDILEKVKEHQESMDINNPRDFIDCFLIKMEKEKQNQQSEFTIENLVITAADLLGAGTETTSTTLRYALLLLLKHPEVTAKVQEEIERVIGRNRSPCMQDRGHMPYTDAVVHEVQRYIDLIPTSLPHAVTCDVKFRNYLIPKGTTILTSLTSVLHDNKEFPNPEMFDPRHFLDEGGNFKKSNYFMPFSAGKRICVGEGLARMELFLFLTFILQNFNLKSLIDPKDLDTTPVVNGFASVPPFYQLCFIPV
UniProt P08183, sequence (whole entry, looked up): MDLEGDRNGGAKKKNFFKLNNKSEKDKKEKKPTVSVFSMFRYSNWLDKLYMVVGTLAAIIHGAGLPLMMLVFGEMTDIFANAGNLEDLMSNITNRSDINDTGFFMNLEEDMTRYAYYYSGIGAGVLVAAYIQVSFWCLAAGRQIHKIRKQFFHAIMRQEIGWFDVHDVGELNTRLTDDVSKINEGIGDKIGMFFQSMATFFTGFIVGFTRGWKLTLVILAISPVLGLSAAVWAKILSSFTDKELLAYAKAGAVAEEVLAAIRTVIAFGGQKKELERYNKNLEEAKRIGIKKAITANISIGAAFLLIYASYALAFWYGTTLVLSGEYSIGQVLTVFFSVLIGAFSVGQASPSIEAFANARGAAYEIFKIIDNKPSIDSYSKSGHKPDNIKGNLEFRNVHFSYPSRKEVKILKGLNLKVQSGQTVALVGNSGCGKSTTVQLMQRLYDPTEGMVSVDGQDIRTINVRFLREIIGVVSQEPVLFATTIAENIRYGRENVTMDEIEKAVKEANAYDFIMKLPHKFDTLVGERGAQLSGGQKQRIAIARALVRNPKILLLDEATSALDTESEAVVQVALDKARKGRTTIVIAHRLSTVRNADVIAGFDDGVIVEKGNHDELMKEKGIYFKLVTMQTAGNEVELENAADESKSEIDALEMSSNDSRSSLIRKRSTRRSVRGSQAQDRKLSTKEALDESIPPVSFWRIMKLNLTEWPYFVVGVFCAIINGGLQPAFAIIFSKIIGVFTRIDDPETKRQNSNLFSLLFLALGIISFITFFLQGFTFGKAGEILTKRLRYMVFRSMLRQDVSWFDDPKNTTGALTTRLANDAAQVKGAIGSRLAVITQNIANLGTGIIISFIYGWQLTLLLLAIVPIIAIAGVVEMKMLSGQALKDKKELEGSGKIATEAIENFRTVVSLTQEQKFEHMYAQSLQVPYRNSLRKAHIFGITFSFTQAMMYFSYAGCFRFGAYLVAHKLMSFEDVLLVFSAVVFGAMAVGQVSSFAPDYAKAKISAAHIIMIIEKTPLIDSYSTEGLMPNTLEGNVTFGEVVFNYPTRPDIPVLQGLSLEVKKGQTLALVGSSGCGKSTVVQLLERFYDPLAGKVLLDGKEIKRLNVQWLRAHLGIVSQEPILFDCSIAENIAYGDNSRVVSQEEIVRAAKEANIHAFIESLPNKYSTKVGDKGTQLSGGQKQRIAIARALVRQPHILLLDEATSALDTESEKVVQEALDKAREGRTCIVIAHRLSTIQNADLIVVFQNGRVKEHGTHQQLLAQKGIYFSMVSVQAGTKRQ

SMILES	tested on	test	system	setting	how to read	quantity	value
CCOc1ccc(CN2CC[C@H]2C(=O)NC)cc1-c1cccc(C(=O)NC[C@@H]2COC(C)(C)O2)c1	Huh-7-ACE2	CellTiter-Glo		0.781 µM, 48 h, unit not given	relative to: DMSO	viability	0.997 and 1.04 and 0.868
Cc1nc2cccc(OCC(C)(C)C(=O)NC(C)C)c2c(N)c1C(=O)[O-].[Na+]	Salmonella typhimurium	Ames plate incorporation	TA1535	0.13 mg/plate, with: with rat liver S9		revertant colonies	12 ± 2 colonies/plate
CNC(=O)C[C@H](Cc1ccccc1)NC(=O)[C@@H](Cc1ccc(Cl)cc1Cl)NC(=O)[C@H](N)Cc1ccccc1C#N	Huh-7-ACE2	CellTiter-Glo		0.0977 µM, 48 h, unit not given	relative to: DMSO	viability	1.07 and 1 and 0.961
C[C@@H](c1ccc2nccn2c1)n1nnc2nc(O)c(-c3cnn(C)c3)nc21	Cytochrome P450 2C19 (CYP2C19, Homo sapiens, UniProt P33261)	enzyme activity, inhibitor	human, liver microsomes			IC50	> 50 µM
COc1ccc(-n2cc(C(=O)N3C[C@]4(OC(=O)c5ccccc5NC(C)=O)CC[C@H](OC)[C@@]56[C@@H]4C[C@@H]([C@@H]35)[C@@]3(O)C[C@H](OC)[C@H]4C[C@@H]6[C@]3(O)[C@H]4OC)nn2)cc1			Sprague-Dawley rat, plasma	intravenous, 2 mg/kg, 0.25 h		plasma concentration	0.0633 µg/mL
Cc1cc(-c2ccc3ccccc3c2)nnc1NCCN1CCN(C)CC1	Cytochrome P450 2C8 (CYP2C8, Homo sapiens, UniProt P10632)	substrate	recombinant enzyme	100 nM, 0.5 h		remaining compound	93%
CNC(=O)C[C@H](Cc1ccncc1)NC(=O)[C@@H](Cc1cccc(Br)c1)NC(=O)[C@@H](N)Cc1cccc(F)c1	Huh-7-ACE2	CellTiter-Glo		0.00305 µM, 48 h, unit not given	relative to: DMSO	viability	0.888 and 0.891 and 0.943
C[C@]12CC[C@H]3[C@@H](CCC4=CC(=O)CC[C@@]43C)[C@@H]1CC[C@@H]2O			human liver microsomes	1 nM		intrinsic clearance	71.6 µL/min/mg
COc1cc2c(cc1NC(=O)c1cncn1C)C[C@H]1[C@H]3CCCC[C@@]23CCN1C			C57BL/6 mouse, plasma	oral, 50 µg/g, 300 min		plasma concentration	1.72 µg/mL
O=C1NC2(CC2)COc2ncc(F)cc2[C@H]2COCCN2c2ccn3ncc1c3n2			Sprague-Dawley rat, male, kidneys	oral, 2.5 mg/kg/day, 4 weeks		organ weight	3.18 ± 0.248 g
CNC(=O)CC1CN(C(=O)c2ccc(C(F)(F)F)cn2)CCN1C(=O)c1cccnn1 (stereo not shown)	Huh-7-ACE2	CellTiter-Glo		3.125 µM, 48 h, unit not given	relative to: DMSO	viability	0.957 and 0.99 and 1.01
Cc1ccc(NS(=O)(=O)c2c(C(=O)N3CCCCCC3)c(C)n(C)c2C)c(Cl)c1	human cells			0.412 µM, 60 h		viability	94.7%
CNC(=O)C[C@H](Cc1ccc(F)cc1)NC(=O)[C@@H](Cc1ccc(Cl)cc1Cl)NC(=O)[C@H](N)Cc1ccccc1[N+](=O)[O-]	Huh-7-ACE2	CellTiter-Glo		0.0977 µM, 48 h, unit not given	relative to: DMSO	viability	0.9 and 0.944 and 0.927
C[C@@H](c1ccc2nccn2c1)n1nnc2ncc(-c3cn[nH]c3)nc21	human CYP3A4/5	time-dependent inhibitor	human liver microsomes	10 µM		inhibition	< 20%
NC[C@]1(CC(=O)O)CC[C@@H]([18F])CC1		PET, arterial plasma	rhesus monkey, plasma parent	intravenous, baseline		slow-phase half-life	1.47 h
CC(=O)NCCCC[C@@H]1NC(=O)[C@H](Cc2c[nH]c3c(C)cccc23)NC(=O)[C@H]([C@@H](C)O)NC(=O)[C@H](CC(N)=O)NC(=O)[C@@H](NC(C)=O)C(C)(C)SSC(C)(C)[C@@H](C(=O)N[C@@H](Cc2ccc(OCCN)cc2)C(=O)N[C@@H](Cc2ccc3ccccc3c2)C(=O)NC2(C(=O)N[C@@H](CCC(=O)O)C(=O)N[C@@H](CC(N)=O)C(=O)N[C@@H](Cc3cccnc3)C(=O)N(C)CC(N)=O)CCOCC2)NC1=O	ATP-dependent translocase ABCB1 (ABCB1, Homo sapiens, UniProt P08183)	transport, inhibitor	LLC-PK1 expressing MDR1	1 µM, 90 min, with: [3H]digoxin		efflux ratio	17.2
CC[C@H](C)[C@H](NC(=O)[C@H](CCCCN)NC(=O)[C@H](CCCCN)NC(=O)[C@H](Cc1ccccc1)NC(=O)[C@H](Cc1ccccc1)NC(=O)[C@H](CCCCN)NC(=O)[C@H](CCCCN)NC(=O)[C@H](Cc1ccccc1)NC(=O)[C@H](CCCNC(=N)N)NC(=O)[C@@H](N)CCCCN)C(=O)N[C@@H](CCCCN)C(=O)N[C@@H](CCCCN)C(=O)N[C@@H](CO)C(=O)N[C@H](C(=O)N[C@@H](CCCCN)C(=O)N[C@@H](CCCCN)C(=O)N[C@@H](CCCNC(=N)N)C(=O)N[C@H](C(=O)N[C@@H](CCCCN)C(=O)N[C@@H](CCCCN)C(=O)N[C@@H](CC(C)C)C(=O)N[C@@H](Cc1ccccc1)C(=O)N[C@@H](CCCCN)C(=O)N[C@@H](CCCCN)C(=O)N1CCC[C@H]1C(=O)N[C@@H](CCCNC(=N)N)C(=O)N[C@H](C(=O)N[C@H](C(=O)N1CCC[C@H]1C(=O)N[C@H](C(=O)N[C@@H](CO)C(=O)N[C@H](C(=O)N1CCC[C@H]1C(=O)N[C@@H](Cc1ccccc1)C(=O)O)[C@@H](C)CC)[C@@H](C)CC)[C@@H](C)CC)C(C)C)C(C)C)C(C)C	Pseudomonas aeruginosa		P1	after heating at 37 °C		MIC	4 mg/L (≈ 0.948 µM)
CNC(=O)C[C@H](Cc1ccc(F)cc1)NC(=O)[C@@H](Cc1ccc(Cl)cc1Cl)NC(=O)[C@H](N)Cc1ccccc1C#N	Huh-7-ACE2	CellTiter-Glo		0.00305 µM, 48 h, unit not given	relative to: DMSO	viability	1.03 and 0.985 and 1.02
CN(C)c1ccc(-c2nc3ccccc3n2CCCOc2ccccc2)cc1	Huh-7	cell growth or viability, ATP luminescence		72 h		IC50	> 10 µM

Some of these lines once more:
SMILES	tested on	test	system	setting	how to read	quantity	value
C[C@]12CC[C@H]3[C@@H](CCC4=CC(=O)CC[C@@]43C)[C@@H]1CC[C@@H]2O			human liver microsomes	1 nM		intrinsic clearance	71.6 µL/min/mg
Cc1cc(-c2ccc3ccccc3c2)nnc1NCCN1CCN(C)CC1	Cytochrome P450 2C8 (CYP2C8, Homo sapiens, UniProt P10632)	substrate	recombinant enzyme	100 nM, 0.5 h		remaining compound	93%
